Measured values gathered from unrelated publications.
A part holds a random share of what one study measured. Positions count from the first letter of the parent shown.
Sequence of UniProt Q9Y2X8 (whole entry, looked up): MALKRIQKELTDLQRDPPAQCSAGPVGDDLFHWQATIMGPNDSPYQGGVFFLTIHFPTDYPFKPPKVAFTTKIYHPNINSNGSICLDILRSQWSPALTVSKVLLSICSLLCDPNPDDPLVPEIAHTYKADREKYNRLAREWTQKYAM

Set 1 — method: RNA Bind-n-Seq; molecule type: RNA; sample: in vitro; concentration: 1 µM; setting: whole 134-nt RNA, ends assumed; with: 150 mM KCl; relative to: input library; direction: higher = stronger binding
Target: Ras GTPase-activating protein-binding protein 1, RRM domain (G3BP1, Homo sapiens, UniProt Q13283)
Sequence of UniProt Q13283 (whole entry, looked up): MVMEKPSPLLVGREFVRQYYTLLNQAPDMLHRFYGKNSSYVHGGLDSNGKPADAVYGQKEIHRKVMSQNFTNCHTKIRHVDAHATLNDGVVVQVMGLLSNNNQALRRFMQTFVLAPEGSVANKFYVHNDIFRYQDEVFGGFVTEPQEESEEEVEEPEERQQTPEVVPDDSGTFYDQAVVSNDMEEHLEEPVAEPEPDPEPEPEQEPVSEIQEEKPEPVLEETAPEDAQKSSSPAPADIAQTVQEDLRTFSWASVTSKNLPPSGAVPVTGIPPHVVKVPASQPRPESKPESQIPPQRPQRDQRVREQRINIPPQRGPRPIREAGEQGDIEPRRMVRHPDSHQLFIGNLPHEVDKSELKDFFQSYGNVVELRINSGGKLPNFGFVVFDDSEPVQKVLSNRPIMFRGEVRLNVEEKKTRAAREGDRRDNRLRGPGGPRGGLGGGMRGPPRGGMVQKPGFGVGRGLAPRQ
Strand	log2 enrichment
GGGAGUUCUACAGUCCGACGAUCUGGCUCUGGUGGCAUGCGGGGAGGAAGAGGUGGCCUCAUGGAUCGUGGUGGUCCCGGUGGAAUGUUCAGAGGUGGCCGUGGUGGAGACAGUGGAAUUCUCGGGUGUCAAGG	0.58
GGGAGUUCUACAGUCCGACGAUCUCAAGUCCUGUGCUACACAUCGUAUGUACCGAAUCGGUUUUUGGUUUUUGGUGGAAAGUAUUAUGUUACGCCGUUCGGAUCUGCACUUCCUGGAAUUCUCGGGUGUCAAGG	-0.232
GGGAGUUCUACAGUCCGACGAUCUUUUCUUCUGGGGCAUUUAUCCGUGCUGAUCUUGGUGAAUGGGGCAUGAGUCUAACGAUCAGAGCCCCUAGUGUAGAUUACAGAAACACUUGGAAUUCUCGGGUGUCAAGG	-0.165
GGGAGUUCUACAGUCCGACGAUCGUCCUGUGCUACACAUCGUAUGUACCGAAUCGGGGUGGGGUUUUUGGGGUUUUUGGGGAAAGUAUUAUGUUACGCCGUUCGGAUCUGCACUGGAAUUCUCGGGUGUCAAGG	0.716
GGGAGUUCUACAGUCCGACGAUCCCUGUGCUACACAUCGUAUGUACCGAAUCGGGGUUUUUUGGGGUUUUUUGGUUUUUUGGGAAAGUAUUAUGUUACGCCGUUCGGAUCUGCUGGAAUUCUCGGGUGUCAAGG	-0.22
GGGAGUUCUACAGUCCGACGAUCGGGGUGAGCACAGACAGGAUCGCAGGGAGAGGCCGUAUUAAUUAGCCUGGCUCCCCAGGUUCUGGAACAGCUUUUUGUCCUGUACCCAGUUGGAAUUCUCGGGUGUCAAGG	0.0459
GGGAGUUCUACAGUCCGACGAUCCCUCAAGUCCUGUGCUACACAUCGUAUGUACCGAAUCGGAGGUGGUUUUUGGAAAGUAUUAUGUUACGCCGUUCGGAUCUGCACUUCCAGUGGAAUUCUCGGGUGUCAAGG	-0.252
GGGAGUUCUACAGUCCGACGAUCUCAAGUCCUGUGCUACACAUCGUAUGUACCGAAUCGGCCCGGGGCCCGGCCCGGAAAGUAUUAUGUUACGCCGUUCGGAUCUGCACUUCCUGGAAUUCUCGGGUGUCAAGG	-0.594

Set 2 — observed: peptide-MHC binding; molecule type: peptide; concentration: concentration not given
Target: HLA class I histocompatibility antigen, A alpha chain, allele A*25:01 (Homo sapiens, UniProt P04439)
Sequence	binding
ETWVETWAF	inactive
YFYYNAFHWAI	inactive
YEPEMQAQV	inactive

Set 3 — method: protein-binding microarray; molecule type: hairpin DNA; sample: in vitro; concentration: not given; relative to: not given; direction: higher = stronger binding
Target: Cellular tumor antigen p53, full length (TP53, Homo sapiens, UniProt P04637, residues 1-393)
Setting: whole hairpin DNA, median over replicate spots
Strand	median fluorescence
CCACACGTGGTGGCGTGCCTTCCTAGGCACGCCACCACGTGTGGACACTC (5mC at 14)	4310 a.u.
CGGACCTGCCCGGGCATGTCTCCTGACATGCCCGGGCAGGTCCGACACTC (5mC at 6)	15200 a.u.
CGGACATGCCCGTGCATGTCTCCTGACATGCACGGGCATGTCCGACACTC	16200 a.u.
CGGACATGTCCGGGCATGTCTCCTGACATGCCCGGACATGTCCGACACTC	21200 a.u.
CCACACGTGGTGGGATGCCTTCCTAGGCATCCCACCACGTGTGGACACTC	4030 a.u.
CGGACATGCCCGGGCCTGTCTCCTGACAGGCCCGGGCATGTCCGACACTC (5mC at 16)	11700 a.u.
CCACACGTGGTGGCATGCCTTCCTAGGCATGCCACCACGTGTGGACACTC (5mC at 36)	7350 a.u.
CGGACATGCCCGGGCATGTCTCCTGACATGCCCGGGCATGTCCGACACTC (5mC at 11 33)	21900 a.u.

Set 4 — target: CCNE1, cyclin fold, Cln2 fusion (human); method: yeast growth competition, sequencing; sample: yeast; setting: strong parent motif; relative to: not given; direction: higher = stronger binding; starting sequence: viral docking peptide; TSVRRALFTGGSD
Change	normalised enrichment score
S2P	4.64
V3T	1.82
T9M	5.29
S2L	3.51
S2Y	4.37
V3S	0.467
R5Q	0.327
G10T	5.76
F8M	0.406
T9R	5.42
G10M	4.81
L7S	-0.121
S2N	5.9
R5P	0.0874
S2E	3.91

Single results of other studies
Sequence	target	assay	test system	setting	scale	quantity	value
MNDVLENELQCIICSEYFIEAVTLNCAHSFCSYCINEWMKRKIECPICRKDIKSKTYSL (RNF8 RING domain (UniProt O76064))	UBE2D4 UBC core domain (UniProt Q9Y2X8)	yeast two-hybrid	yeast	mostly zero background	relative to: not given, higher = stronger interaction	lacZ reporter activity	0

Repeated from above (set 4):
Change	normalised enrichment score
G10T	5.76
F8M	0.406
T9R	5.42
G10M	4.81
L7S	-0.121
S2N	5.9
